Published values of several laboratories.
Numbered parts are unrelated; each lists some results of a single study. Substitutions count along the parent as printed.

Block 1 — target: CCNA2, cyclin fold, Cln2 fusion (human); technique: yeast growth competition, sequencing; matrix: yeast; notes: strong parent motif; baseline: not given; direction: higher = stronger binding; endpoint: normalised enrichment score
Parent: viral docking peptide; TSVRRALFTGGSD; partner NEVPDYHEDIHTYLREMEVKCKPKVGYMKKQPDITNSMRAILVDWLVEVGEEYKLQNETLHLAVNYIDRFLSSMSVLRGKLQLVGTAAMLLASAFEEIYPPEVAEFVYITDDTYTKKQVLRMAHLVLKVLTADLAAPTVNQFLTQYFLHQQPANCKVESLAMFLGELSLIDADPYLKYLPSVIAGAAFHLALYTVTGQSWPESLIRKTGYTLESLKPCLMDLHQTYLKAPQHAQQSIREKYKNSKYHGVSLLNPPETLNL
Change = TSWRRALFTGGSD [V3W]; result = 3.2
Change = TSVRRALFSGGSD [T9S]; result = 6.12
Change = TSVRRALRTGGSD [F8R]; result = 0.157
Change = TSVRRAQFTGGSD [L7Q]; result = 0.104
Change = TSVRRALLTGGSD [F8L]; result = 1.27
Change = TSIRRALFTGGSD [V3I]; result = 5.07
Change = TSVRRALFTGISD [G11I]; result = 6.08
Change = TSVRVALFTGGSD [R5V]; result = 2.24
Change = TSVRRAFFTGGSD [L7F]; result = 0.486
Change = TFVRRALFTGGSD [S2F]; result = 4.96
Change = TSVRRALFTGGMD [S12M]; result = 6.12
Change = TSVRRCLFTGGSD [A6C]; result = 6.84
Change = TSVRRALFTGVSD [G11V]; result = 6.36
Change = TSVRRALFTQGSD [G10Q]; result = 6.42
Change = TSVRRALFTSGSD [G10S]; result = 6.74
Change = TSVRRALGTGGSD [F8G]; result = -0.012
Change = TSVRRALPTGGSD [F8P]; result = 0.111
Change = TSVDRALFTGGSD [R4D]; result = 0.121
Change = TSVRRALFGGGSD [T9G]; result = 6.7
Change = TSVRDALFTGGSD [R5D]; result = -0.44
Change = TSVRRALYTGGSD [F8Y]; result = 2.25
Change = TDVRRALFTGGSD [S2D]; result = 4.9
Change = TSVRRALFCGGSD [T9C]; result = 5.9

Block 2 — technique: protein-binding microarray; molecule type: double-stranded DNA, one strand shown; matrix: in vitro; tested at: not given; direction: higher = stronger binding; endpoint: E-score
Target: Myc proto-oncogene protein, bHLH-zipper, MAX partner unstated (MYC, Homo sapiens, UniProt P01106, residues 368-449)
UniProt P01106, sequence (368-449, looked up): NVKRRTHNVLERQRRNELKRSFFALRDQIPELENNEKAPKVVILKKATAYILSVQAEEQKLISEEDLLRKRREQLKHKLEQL
Notes: k-mer, scored over probes, only values ≥0.25
Sequence = GCCACCAC; result = 0.287
Sequence = CCGCACCG; result = 0.284
Sequence = CATATGGC; result = 0.393
Sequence = ACGCATCT; result = 0.295
Sequence = CCCCGTGC; result = 0.372
Sequence = GCACATGA; result = 0.43
Sequence = ATGTGTCG; result = 0.277
Sequence = ACGAGGCG; result = 0.42

Block 3 — target: tungstate, free oxyanion; technique: microfluidic competitive inhibition; matrix: in vitro, cell-free expressed; tested at: not given; direction: lower = stronger binding; endpoint: oxyanion analog dissociation constant
Notes: derived from inhibition constants, unchanged parent 2230 nM
Parent: PafA, mature enzyme, eGFP fusion (Elizabethkingia meningoseptica, UniProt Q9KJX5); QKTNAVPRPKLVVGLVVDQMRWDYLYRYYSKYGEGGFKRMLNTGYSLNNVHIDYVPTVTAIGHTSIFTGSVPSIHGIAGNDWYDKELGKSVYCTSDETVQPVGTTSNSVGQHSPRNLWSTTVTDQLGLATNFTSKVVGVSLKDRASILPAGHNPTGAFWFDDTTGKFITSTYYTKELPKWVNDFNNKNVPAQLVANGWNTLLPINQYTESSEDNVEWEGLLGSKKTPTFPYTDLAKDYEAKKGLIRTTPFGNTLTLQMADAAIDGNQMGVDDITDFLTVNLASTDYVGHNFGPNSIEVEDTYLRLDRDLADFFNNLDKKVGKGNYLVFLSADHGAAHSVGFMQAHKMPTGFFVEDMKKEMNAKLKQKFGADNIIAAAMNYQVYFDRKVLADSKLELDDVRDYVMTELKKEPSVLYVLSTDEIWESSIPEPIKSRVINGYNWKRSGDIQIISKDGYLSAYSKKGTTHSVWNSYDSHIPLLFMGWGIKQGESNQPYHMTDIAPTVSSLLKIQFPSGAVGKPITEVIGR
Change = D84G; result = 2150 nM
Change = K31G; result = 2250 nM
Change = F229V; result = 2810 nM
Change = P190G; result = 2040 nM
Change = G243A; result = 2130 nM

Block 4 — technique: RNA Bind-n-Seq; molecule type: RNA; matrix: in vitro; tested at: 365 nM; baseline: no-protein control; direction: higher = stronger binding; endpoint: RBNS enrichment (R)
Target: RNA binding protein fox-1 homolog 2, RRM domain, GST-SBP tag (RBFOX2, Homo sapiens, UniProt O43251-10, residues 100-194)
Notes: natural RNA segment, single round, ends assumed
Residues (chain): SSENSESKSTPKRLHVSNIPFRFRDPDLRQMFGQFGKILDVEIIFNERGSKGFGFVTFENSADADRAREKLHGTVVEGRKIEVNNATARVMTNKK
Sequence = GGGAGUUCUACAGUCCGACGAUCGAGGAUGUGUUUUGCACGUCUUGCUAUUUGAGCAUGCACAGCUGCUUGUCCUGCUCUCUUCAGGAGGCCCUGGUGUCAGGCAGGUUUGCCAGUGAAGACUUCUUGGGUAGUGGAAUUCUCGGGUGCCAA; result = 0.655
Sequence = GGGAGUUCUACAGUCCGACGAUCUACUUCUUUUCUUUUUGCAUUAUCUUGUUUUGGUUUUGUGCUGUAAUAGAAGUUCACUUAGCUACUUUAGAUAACCUUGCAUUACCACUGGUCUGGCCACGUUUGUUAAAUGGAAUUCUCGGGUGCCAA; result = 1.6
Sequence = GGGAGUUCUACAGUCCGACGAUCCGCCCAGCCACAUGUGUCUGCCUGACCCGUACACACCAGGGGUUCCGGGGUUGGGAGCUGAACCAUCCCCACCUCAGGGUUAUAUUUCCCUCUCCCCUUCCCUCCCCGCCUGGAAUUCUCGGGUGCCAA; result = 0.813
Sequence = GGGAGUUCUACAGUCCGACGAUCUCAUUGACAGAGGAGGAAACAGGCCAAGGCAGGACAUGGCUGGACCAUGGUGAUACAGCUCUGUGUGAUUCAAGUUCUGGCAGAGCUUGUAAGGCUAGAGCCCAGGUCUGUGGAAUUCUCGGGUGCCAA; result = 0.446
Sequence = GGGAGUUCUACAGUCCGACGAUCAAAAGGUAAGCACAUUUAGAAUUUUGUUCUUGACAGUUAACUGACUAAUCUUACUUCCACAAAAUAUGUGAAUUUGCUGCUUCUGAGAGGCAAUGUGAAAGAGGGAGUAUUGGAAUUCUCGGGUGCCAA; result = 0.607
Sequence = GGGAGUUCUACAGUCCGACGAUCUUCGUCUCCAAGGUCAUGCUGAAUGCCGGCCAAAAGAGAUGAACCCUGCCCCUUGCCCAGGGCCAGUGCCAUGGGGAAGGGGCUUGUGGGGAGGGGACCCAUGAAUCCUGUGGAAUUCUCGGGUGCCAA; result = 0.295
Sequence = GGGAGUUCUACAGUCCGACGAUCAAUUAGUCACUCUUAGAGUAAUCUGUAUUCAGAACAAUUCAAACAAGCUGGAGGAACAGCUCCUGAUAGUGUGAGAAUUGAGCAAAUGGGAGAAAGCAAUAUUGUUAGAUUGGAAUUCUCGGGUGCCAA; result = 0.329
Sequence = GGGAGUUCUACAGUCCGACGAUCAAAUUGAGCGAGAUCUCAGGCUGAGCAAAAUGAAACCUUGAUGUUACGGGCUAAAUCAAGAGCAGCUUAAUCCUGUUUACAAUGUGAGCUUUUUGUGCGUCUGUGAAAUGUGGAAUUCUCGGGUGCCAA; result = 0.718

Block 5 — effect on: binding; technique: phage display NGS; molecule type: peptide; tested at: concentration not given; notes: normalized abundance; baseline: input library; endpoint: enrichment fold change
Target: UDP-N-acetylglucosamine--peptide N-acetylglucosaminyltransferase 110 kDa subunit (OGT, Homo sapiens, UniProt O15294)
UniProt O15294, sequence (whole entry, looked up): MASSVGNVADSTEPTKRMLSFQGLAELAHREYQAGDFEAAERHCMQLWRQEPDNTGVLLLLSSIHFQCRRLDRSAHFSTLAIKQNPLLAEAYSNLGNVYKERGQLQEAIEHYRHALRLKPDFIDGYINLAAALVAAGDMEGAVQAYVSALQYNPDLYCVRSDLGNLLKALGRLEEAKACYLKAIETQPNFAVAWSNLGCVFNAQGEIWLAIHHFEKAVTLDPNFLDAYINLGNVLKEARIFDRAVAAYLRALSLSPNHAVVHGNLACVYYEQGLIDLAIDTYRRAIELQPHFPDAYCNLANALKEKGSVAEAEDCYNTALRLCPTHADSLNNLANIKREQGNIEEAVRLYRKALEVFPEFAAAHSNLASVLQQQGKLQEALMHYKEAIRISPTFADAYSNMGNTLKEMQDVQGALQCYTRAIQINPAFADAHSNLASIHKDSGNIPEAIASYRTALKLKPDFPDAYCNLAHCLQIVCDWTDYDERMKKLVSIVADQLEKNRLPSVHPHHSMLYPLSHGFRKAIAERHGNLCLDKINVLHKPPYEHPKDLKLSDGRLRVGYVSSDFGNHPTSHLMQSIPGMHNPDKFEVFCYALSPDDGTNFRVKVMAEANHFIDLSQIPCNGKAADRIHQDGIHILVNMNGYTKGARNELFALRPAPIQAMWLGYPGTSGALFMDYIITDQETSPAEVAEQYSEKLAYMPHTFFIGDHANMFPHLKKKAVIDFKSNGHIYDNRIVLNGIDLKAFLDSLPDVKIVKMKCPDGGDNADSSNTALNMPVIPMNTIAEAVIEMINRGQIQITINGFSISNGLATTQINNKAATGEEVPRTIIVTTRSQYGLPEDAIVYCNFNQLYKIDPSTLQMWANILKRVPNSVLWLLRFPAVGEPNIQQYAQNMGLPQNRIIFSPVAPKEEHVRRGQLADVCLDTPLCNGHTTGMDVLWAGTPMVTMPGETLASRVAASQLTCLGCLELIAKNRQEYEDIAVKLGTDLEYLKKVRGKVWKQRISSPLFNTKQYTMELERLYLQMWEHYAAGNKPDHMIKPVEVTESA
Molecule = QMDGMFPPKYQINSF; result = 12
Molecule = SSYMPQYQISFLKKE; result = 64.9
Molecule = QMEYYPQYQLRYMQV; result = 2.8
Molecule = TQWRMDHKHHQMHRI; result = 65.5
Molecule = FVHDQHKQHYHIVAH; result = 71.8

Repeated from above (block 4):
Sequence = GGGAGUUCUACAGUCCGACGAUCUUCGUCUCCAAGGUCAUGCUGAAUGCCGGCCAAAAGAGAUGAACCCUGCCCCUUGCCCAGGGCCAGUGCCAUGGGGAAGGGGCUUGUGGGGAGGGGACCCAUGAAUCCUGUGGAAUUCUCGGGUGCCAA; result = 0.295
Sequence = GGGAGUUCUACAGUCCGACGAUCAAUUAGUCACUCUUAGAGUAAUCUGUAUUCAGAACAAUUCAAACAAGCUGGAGGAACAGCUCCUGAUAGUGUGAGAAUUGAGCAAAUGGGAGAAAGCAAUAUUGUUAGAUUGGAAUUCUCGGGUGCCAA; result = 0.329
Sequence = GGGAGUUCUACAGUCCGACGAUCAAAUUGAGCGAGAUCUCAGGCUGAGCAAAAUGAAACCUUGAUGUUACGGGCUAAAUCAAGAGCAGCUUAAUCCUGUUUACAAUGUGAGCUUUUUGUGCGUCUGUGAAAUGUGGAAUUCUCGGGUGCCAA; result = 0.718
